Published values of several laboratories.
Every numbered part comes from another study and shows a few of its results, in no order.

Set 1
Organism: Saccharomyces cerevisiae
Observed: binding
Technique: competitive growth deep sequencing
Molecule type: peptide
Strain: cyclin D3-Cln2 fusion strain
Concentration: concentration not given
Setting: peptide tiling library
Direction: direction not given
Quantity: growth enrichment score
Sequence = PKNAKRNLSSEFAN; value = -0.443
Sequence = IFNKPECGRVQRAIFQ; value = -0.0582
Sequence = TQERKQIHCLSEDELS; value = 0.265
Sequence = MNQELLSVGSKRRRTG; value = -1.42
Sequence = GTPKRCLDLSNLSSGE; value = 2.31
Sequence = TLPYDLACTGGDFVLF; value = -0.276
Sequence = PKRAKRKLYTSEISSP; value = -0.259
Sequence = IPMIAKNLMCELDE; value = 0.698
Sequence = RKLDLEGIGR; value = 0.829

Set 2
Target: Fragile X messenger ribonucleoprotein 1, C-terminal low-complexity region (Fmr1, Mus musculus, UniProt P35922)
Technique: RNA Bind-n-Seq
Molecule type: RNA
Matrix: in vitro
Concentration: 200 nM
Setting: whole 134-nt RNA, ends assumed
Together with: 150 mM KCl
Reference: input library
Direction: higher = stronger binding
Quantity: log2 enrichment
Sequence = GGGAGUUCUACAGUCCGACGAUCCACAGACAACACGCACCCACACAGACACAGAGGGAAGGGGUUGGGAUGGGGACAGGGUGCACAGCAGGGCGGGGUAGGACCCCAAAACCUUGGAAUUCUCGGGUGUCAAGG; value = 1.19
Sequence = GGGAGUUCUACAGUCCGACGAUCCUCAAGUCCUGUGCUACACAUCGUAUGUACCGAAUCGGGAAGGAAGGAAGGGGAAAGUAUUAUGUUACGCCGUUCGGAUCUGCACUUCCAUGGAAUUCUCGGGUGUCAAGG; value = 0.0876
Sequence = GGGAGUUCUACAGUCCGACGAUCCACAGACAACACGCACCCACACAGACACAGAGGGAAGGGGUUGGGAUGGGGACAGGGUUCACAGCAGGGCGGGGUAGGACCCCAGCCCCUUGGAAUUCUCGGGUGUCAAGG; value = 1.15
Sequence = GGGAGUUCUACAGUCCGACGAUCGCAGGAAGUAAAAACAAAUGGAAAUGCUUCGGAUAGUGGCAGGGGUGGGGGUUGCUAAGGAAAGCGUGGGAUGGGAGUGGGUAAAGAGUUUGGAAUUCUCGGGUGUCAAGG; value = 0.481
Sequence = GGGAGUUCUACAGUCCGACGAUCUGGUAAGAAAUCUGCUUGUUUUAUUAAAAUGCUUAAUUGAAGAAAAUAAUAUUCUUCUGUGAUUAAAAUUAGGAAGAAAUAGAACCAUUUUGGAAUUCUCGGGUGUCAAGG; value = -1.25
Sequence = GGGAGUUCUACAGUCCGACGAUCGUCCUGUGCUACACAUCGUAUGUACCGAAUCGGGGUUUUUGGGGUUUUUGGUUUUUGGGAAAGUAUUAUGUUACGCCGUUCGGAUCUGCAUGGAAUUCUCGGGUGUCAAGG; value = -0.139
Sequence = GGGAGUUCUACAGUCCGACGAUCAAGUCCUGUGCUACACAUCGUAUGUACCGAAUCGGGGAAAGGGGAAAGGAAAGGGGAAAGUAUUAUGUUACGCCGUUCGGAUCUGCACUUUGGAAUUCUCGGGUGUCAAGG; value = 0.459
Sequence = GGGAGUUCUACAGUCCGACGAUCAGUCCUGUGCUACACAUCGUAUGUACCGAAUCAAAUUUUUUUAAAUUUAAACCCAAAAAAGUAUUAUGUUACGCCGUUCGGAUCUGCACUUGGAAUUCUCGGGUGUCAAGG; value = -0.0535
Sequence = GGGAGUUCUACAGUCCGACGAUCUCAAGUCCUGUGCUACACAUCGUAUGUACCGAAUCGGGAGGGUUUUUGGGAGGGAAAGUAUUAUGUUACGCCGUUCGGAUCUGCACUUCCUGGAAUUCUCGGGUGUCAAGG; value = 1.21
Sequence = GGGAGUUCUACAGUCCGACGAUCAAGUCCUGUGCUACACAUCGUAUGUACCGAAUCGGGGUUUGGGGUUUGGGGUUUGGAAAGUAUUAUGUUACGCCGUUCGGAUCUGCACUUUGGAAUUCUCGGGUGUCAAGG; value = -0.0628
Sequence = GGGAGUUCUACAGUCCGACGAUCUGGGAGGUGGAUUUUGUUUAUUUUUUUAGCUUAUUUCCAGGGGUGGGAAUUUUUUUUUAAUAUGUGUCAUGAAUAAAGUUGUUUUUGAAAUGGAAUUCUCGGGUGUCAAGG; value = 0.181
Sequence = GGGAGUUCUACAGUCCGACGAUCAAUAACUGACGCUGCAUUUAAUUUUUUUGCCAGUUUAAAAUGUUUGUGUGUUUUUAUAGAUGAUUUUAACUGGUACAUAUUUUGAGUUAAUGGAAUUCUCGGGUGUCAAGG; value = -1.11
Sequence = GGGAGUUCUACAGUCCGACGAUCAGUCCUGUGCUACACAUCGUAUGUACCGAAUCGGGGUUUGGGGAGGGGAAAAAGGGGAAAGUAUUAUGUUACGCCGUUCGGAUCUGCACUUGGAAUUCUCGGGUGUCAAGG; value = 0.44

Set 3
Target: Sal-like protein 4, full length isoform A (SALL4, Homo sapiens, UniProt Q9UJQ4, residues 1-1053)
Sequence of UniProt Q9UJQ4 (whole entry, looked up): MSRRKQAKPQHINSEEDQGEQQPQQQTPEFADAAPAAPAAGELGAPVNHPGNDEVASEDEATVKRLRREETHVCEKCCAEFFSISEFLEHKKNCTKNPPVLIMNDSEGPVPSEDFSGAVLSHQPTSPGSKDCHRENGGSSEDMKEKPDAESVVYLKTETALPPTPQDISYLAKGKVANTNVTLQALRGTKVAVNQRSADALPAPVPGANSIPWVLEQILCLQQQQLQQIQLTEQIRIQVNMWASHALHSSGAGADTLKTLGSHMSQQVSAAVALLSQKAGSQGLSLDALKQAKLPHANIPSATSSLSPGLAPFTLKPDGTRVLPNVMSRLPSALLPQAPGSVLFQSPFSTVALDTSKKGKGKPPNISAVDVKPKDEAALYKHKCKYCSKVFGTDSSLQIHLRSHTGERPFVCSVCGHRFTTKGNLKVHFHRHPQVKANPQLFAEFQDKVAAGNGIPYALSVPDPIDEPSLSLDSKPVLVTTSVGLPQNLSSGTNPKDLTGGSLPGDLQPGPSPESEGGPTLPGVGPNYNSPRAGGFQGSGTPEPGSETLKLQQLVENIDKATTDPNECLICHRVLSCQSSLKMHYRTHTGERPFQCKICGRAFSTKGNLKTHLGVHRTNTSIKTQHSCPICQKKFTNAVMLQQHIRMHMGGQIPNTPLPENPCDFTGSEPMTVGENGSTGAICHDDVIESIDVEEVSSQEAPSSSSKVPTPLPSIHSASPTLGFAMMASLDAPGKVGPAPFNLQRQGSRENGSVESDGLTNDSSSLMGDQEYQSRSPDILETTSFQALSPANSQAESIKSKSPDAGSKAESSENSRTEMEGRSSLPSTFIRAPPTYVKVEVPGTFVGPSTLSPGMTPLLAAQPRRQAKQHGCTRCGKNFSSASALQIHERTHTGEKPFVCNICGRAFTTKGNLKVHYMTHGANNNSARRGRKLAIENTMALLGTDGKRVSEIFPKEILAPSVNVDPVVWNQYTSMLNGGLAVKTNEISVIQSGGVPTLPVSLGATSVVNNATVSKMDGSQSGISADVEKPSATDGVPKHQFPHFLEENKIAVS
Technique: universal PBM
Molecule type: double-stranded DNA, one strand shown
Matrix: in vitro
Concentration: 600 nM
Setting: 8-mer, flanks averaged, mean of replicates
Direction: higher = stronger binding
Quantity: E-score
Sequence = AGCCGCTG; value = -0.216
Sequence = CCTTTCCC; value = -0.0593
Sequence = GCAGATGA; value = -0.0847
Sequence = ATATAGCC; value = 0.284
Sequence = CGGGTTAG; value = -0.352
Sequence = GAAGACCC; value = -0.172
Sequence = CGTTTATC; value = 0.234
Sequence = GAACTTGC; value = -0.0661
Sequence = AGATGCTC; value = -0.162
Sequence = CCGTGGGA; value = -0.312
Sequence = GGTGTAGA; value = -0.161
Sequence = ACAAGTAG; value = 0.0632
Sequence = GGCGCCAC; value = -0.42
Sequence = TCCTCTAA; value = 0.0584
Sequence = AATGGCGA; value = 0.076
Sequence = AACGCTAG; value = -0.099
Sequence = ACACTAAT; value = 0.217
Sequence = ATGGGTCA; value = -0.0482
Sequence = CTTGTAAA; value = 0.182

Set 4
Target: RNA binding protein fox-1 homolog 2, RRM domain, GST-SBP tag (RBFOX2, Homo sapiens, UniProt O43251-10, residues 100-194)
Technique: RNA Bind-n-Seq
Molecule type: RNA
Matrix: in vitro
Concentration: 365 nM
Setting: natural RNA segment, single round, ends assumed
Reference: no-protein control
Direction: higher = stronger binding
Quantity: RBNS enrichment (R)
Target sequence (chain): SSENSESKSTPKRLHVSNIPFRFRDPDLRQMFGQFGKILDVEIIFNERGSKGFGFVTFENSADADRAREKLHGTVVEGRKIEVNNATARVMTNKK
Sequence = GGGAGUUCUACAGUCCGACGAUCUCACCUAUCCUCAGGCUCACAGUGGAAAUGUCCAGGGACAGGGCUGUUAGAAUGAGCUAAGGGAGACUGUUUUGCGUCCUGAGUUUCUAUUUCAUUGGAUCAGGAAAUCAUGGAAUUCUCGGGUGCCAA; value = 0.314
Sequence = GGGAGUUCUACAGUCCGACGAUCCAUAAACCUUAAUCUGGAGAAGAAGUUUUGAUGCUGGAAGUGAGCAUCAGCUAUUGAGAUAGGCCUGCUCAGUUAAUAUGGCUUCCUGGCCAGUAGGCAUUCUGUACCAAUGGAAUUCUCGGGUGCCAA; value = 0.495
Sequence = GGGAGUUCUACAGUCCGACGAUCUACAGACUGUCCCCAACUUAACAGUGGUUCAACUUAAACCAUGUUUCAACUUUACAAUUGGUCUGUUGGGGUAUUAAAUGAAUUUGUGACUUAGGAUAUUUUCAUUUAUGUGGAAUUCUCGGGUGCCAA; value = 0.327
Sequence = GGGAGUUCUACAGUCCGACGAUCAUUCCCAAGGUACAUACUUUGACUUAAAUGUGGGAUAACUCAGCACUAAUGGGCAGGUAAAGUCACAACUGUGGUUAUUUUGGUUUUGUUUUGGUUUUUGGUUUUUUUAUUGGAAUUCUCGGGUGCCAA; value = 0.935
Sequence = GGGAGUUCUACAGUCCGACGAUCGGAAACAGUACUGAGGGCAAAGUUUACAGAUGUUUUUGAUUCUGGCAUUUUGUCCAGAACAGCUUGUAGCAGCUAUAGAUUCCCCCUUGGCCCCAAGCCUGGGACUUGAGUGGAAUUCUCGGGUGCCAA; value = 0.755
Sequence = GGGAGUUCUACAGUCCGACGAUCAGUAGCCGAGAGUGUCAUUCUCUCCACCCUUUCUGUGUGUACCAGAGCCACACCCAUGCCAUUACUGUAACAUUCCAACAUCUCCAUCUGACCUGACCUCCAUAUCUUCUUGGAAUUCUCGGGUGCCAA; value = 0.461
Sequence = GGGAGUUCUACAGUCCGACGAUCCAAGAGGGGACCACAUAGUCUCUGUUGGCAUUUCUUUGUGGUGUCUGUCUGGACAUGCUUCCUAAAAACAGACCAUUUUCCUUAACUUGCAUCAGUUUUGGUCUGCCUUAUGGAAUUCUCGGGUGCCAA; value = 3.59
Sequence = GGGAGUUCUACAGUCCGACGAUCUGUCUUGUUCUCUCCCAGCAAUUUAUUUUAAAACAAGGGCUAGCUUCAAGCAUGACUGUUAAUGGCUCCUCUGUGACAAAACACAAGUUGGACCAAGGAGAAAGCCCUUUUGGAAUUCUCGGGUGCCAA; value = 3.87
Sequence = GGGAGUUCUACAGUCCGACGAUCUAAAGAUCAAAUUAUUUGAUUAUUGCUAGACAUUUCUAUACUCUGUUGUAACACUGAGGUAUCUCAUUUGCUCAUGUUAAUUUUUUUCUAAAUAAAUGGACAAAAAAUGAUGGAAUUCUCGGGUGCCAA; value = 0.309
Sequence = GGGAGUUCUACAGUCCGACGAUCUGGGGUUGAGGUUUGGGAAGCAGGCAGCAAGCGUUACCUUUGCAGAAGACUCGUGUCUUGCUGUAGAAUCCAGUUUGGUUUCAGCAGCUUGACUUAAUGCACUUACAGGCUGGAAUUCUCGGGUGCCAA; value = 0.742
Sequence = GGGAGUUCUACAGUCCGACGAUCUUAGACUUAUUUUCUAGUGGCUUCAACACAUGUUCCAACUUGAAUUUUUUUCUUUUCUUCUUUAAGUAGCUGAAUGUAUAUAUCAGGGAGGAAGAAGCAAGCAAAACUGAUGGAAUUCUCGGGUGCCAA; value = 0.427
Sequence = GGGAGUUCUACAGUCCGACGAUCUUGUUUGGAAAAUAAGAGCCAAUUUUUCUUAGAAUAUAUAUGUAUAUUAAAUGAGCAUUUGACCUGUAGAUACAUAGUGUGCCGUUUGGCCAGAGCUCCUGGUGUCAAAUUGGAAUUCUCGGGUGCCAA; value = 0.696

Excerpt of the above (set 4):
Sequence = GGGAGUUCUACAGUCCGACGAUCUACAGACUGUCCCCAACUUAACAGUGGUUCAACUUAAACCAUGUUUCAACUUUACAAUUGGUCUGUUGGGGUAUUAAAUGAAUUUGUGACUUAGGAUAUUUUCAUUUAUGUGGAAUUCUCGGGUGCCAA; value = 0.327
Sequence = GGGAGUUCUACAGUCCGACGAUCAUUCCCAAGGUACAUACUUUGACUUAAAUGUGGGAUAACUCAGCACUAAUGGGCAGGUAAAGUCACAACUGUGGUUAUUUUGGUUUUGUUUUGGUUUUUGGUUUUUUUAUUGGAAUUCUCGGGUGCCAA; value = 0.935
Sequence = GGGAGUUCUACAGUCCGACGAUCGGAAACAGUACUGAGGGCAAAGUUUACAGAUGUUUUUGAUUCUGGCAUUUUGUCCAGAACAGCUUGUAGCAGCUAUAGAUUCCCCCUUGGCCCCAAGCCUGGGACUUGAGUGGAAUUCUCGGGUGCCAA; value = 0.755
